Published values of several laboratories.
A part holds a random share of what one study measured. Substitutions count along the parent as printed.

Set 1
Target: ABI1, truncated, D143A, DHFR fusion (Arabidopsis thaliana)
Method: DHFR PCA, deep sequencing
Medium: yeast
Notes: methotrexate growth selection, single substitutions
With: (+)-ABA 0.032 µM
Relative to: wild-type fitted maximum
Direction: higher = stronger binding
Measurement: relative binding score
Starting sequence: PYL1, truncated, DHFR fusion (Arabidopsis thaliana); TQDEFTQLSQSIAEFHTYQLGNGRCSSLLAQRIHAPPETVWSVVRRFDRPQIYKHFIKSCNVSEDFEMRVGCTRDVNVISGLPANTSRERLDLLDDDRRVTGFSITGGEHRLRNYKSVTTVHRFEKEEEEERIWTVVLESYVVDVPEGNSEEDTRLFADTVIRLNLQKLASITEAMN; partner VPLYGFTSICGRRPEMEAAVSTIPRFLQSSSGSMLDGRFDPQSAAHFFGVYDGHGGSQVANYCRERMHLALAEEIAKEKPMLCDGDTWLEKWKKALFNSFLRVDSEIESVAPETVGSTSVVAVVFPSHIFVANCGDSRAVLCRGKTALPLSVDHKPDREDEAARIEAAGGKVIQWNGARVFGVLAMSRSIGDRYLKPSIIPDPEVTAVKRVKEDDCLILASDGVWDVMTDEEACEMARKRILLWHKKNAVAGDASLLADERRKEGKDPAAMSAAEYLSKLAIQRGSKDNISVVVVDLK
Variant = E38A; result = 5.77%
Variant = I33W; result = 2.51%
Variant = V145W; result = -3.6%
Variant = Y141E; result = -1.09%
Variant = A158L; result = 46.1%
Variant = S9A; result = 37.7%
Variant = D153R; result = -0.435%
Variant = V121N; result = 3.02%

Set 2
Target: CCNE1, cyclin fold, Cln2 fusion (human)
Method: yeast growth competition, sequencing
Medium: yeast
Notes: weak parent motif
Relative to: not given
Direction: higher = stronger binding
Measurement: normalised enrichment score
Starting sequence: E2F8 docking peptide (human); FVPQRKLEVSTED
Variant = FVPQRKLEFSTED [V9F]; result = 0.533
Variant = FVPQRKLAVSTED [E8A]; result = -0.047
Variant = FVPQRKLEVSTEA [D13A]; result = -0.576
Variant = FVPQRKLEASTED [V9A]; result = -0.462
Variant = FVPQRALEVSTED [K6A]; result = 0.413
Variant = FVPARKLEVSTED [Q4A]; result = -0.836
Variant = FVPQAKLEVSTED [R5A]; result = -0.213
Variant = FVPQKKLEFSTED [R5K V9F]; result = 0.36

Set 3
Target: RING finger protein unkempt homolog, zinc fingers 1-6, GST-SBP tag (UNK, Homo sapiens, UniProt Q9C0B0, residues 30-357)
Chain of UniProt Q9C0B0 (30-357, looked up): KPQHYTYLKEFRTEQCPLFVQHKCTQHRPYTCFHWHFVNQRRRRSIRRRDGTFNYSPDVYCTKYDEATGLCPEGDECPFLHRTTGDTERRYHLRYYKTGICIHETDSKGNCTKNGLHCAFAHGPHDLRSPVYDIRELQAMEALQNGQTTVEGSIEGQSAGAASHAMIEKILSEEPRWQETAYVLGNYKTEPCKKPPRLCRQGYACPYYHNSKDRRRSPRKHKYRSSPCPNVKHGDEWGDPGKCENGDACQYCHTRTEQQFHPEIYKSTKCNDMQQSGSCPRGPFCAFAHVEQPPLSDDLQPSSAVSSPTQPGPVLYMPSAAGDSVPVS
Method: RNA Bind-n-Seq
Form: RNA
Medium: in vitro
Tested at: not given
Notes: RNA with constant flanks, human-mouse chimeric sites, ends assumed
Relative to: input RNA pool
Direction: higher = stronger binding
Measurement: bound/input enrichment
Constant ends, left off below: GGGAGUUCUACAGUCCGACGAUC … CAACAGAGGAUUGAGCAUCA
Sequence = UAAGUUAUUUUGUACAGCUUUGUAAAUUCUUAACAUUUUUAUAUUGCCAUGUUUAUUUUGUUUGGGUGCUUUAUUAAAUUAAGUACAUAGCUAAGGUAAUGAACAUCGUAAUUAUAGAUU; result = 0.638 ratio
Sequence = AUGGAACAUUUCGAUGCGUCACUCAGUACCUAUUUCAAGGCAUUGCUAGGCCCUCGAGAUACAAGAGUCAAAGGAUGGUUCCUCCUGGACAAUUACAUCCCUACGUUUGUCUGUUCUGUU; result = 0.109 ratio
Sequence = UAAAUCCUGUGCCAGCACUUCGCUCAUAAAGUUUUAAAUUCUGGACCAAUAGUGUUUAUCUUUAGAAUAUUGUAUCCAAUACUUUGCCUAGUAUGUAACUCACUCUUACUGAUAAUAAAA; result = 20.1 ratio
Sequence = GUAAUGUUUAUUCAUUUAACUUAUUUUUAUAGCUAGAUAAAUAUUGUUAGUCUUAGAGAGUAGUUCACAUUUUUUGAGAAGCAUGCCCUCCCUGUCCAUUUGUCUUAUAACAUGACCCAG; result = 10.9 ratio
Sequence = GAUAAGAAAAGCUUGUUGGAGACCCGAUUGCAUGUCACUGGUAGAGACCUGAGGUGUCAAAUAGCUGAAACUUUCGGAUUUCAAGAAAAUUACAUCAAAAUUGUCAUAAAUAAGAAACAG; result = 0.234 ratio
Sequence = ACCUCCCCCUCCCGCCUCACCCCACCCCCGCUUUUUGAAAGUGUGUUGGCUUUUUUUUUCCUUCCCCAUACAAAGUGAUUACAGUUUCCCCCGCAAGGGUCUAUCGAAGGGCUUGACGGA; result = 1.32 ratio
Sequence = UCUGAGGAUACCACUGAGAGACCUUAAAAGAAUCAUUUGAGGGCUCUGUUCGUGCAAGAAUAGUCACUGAUCGGGAAACUGGUUCUUCCAAAGGGUUUGGUUUUGUAGACUUUAAUAGUG; result = 0.634 ratio
Sequence = UCUGGUCACACUCGUGUGUAUGGUGUUUGCUUUGUGGACACUUCACUGGGCAAGUUUUUCAUCGGCCAGUUUUCAGAUGACCGCCACUGUUCCAGAUUUAGGACUCUAGUGGCUCACUAU; result = 0.145 ratio

Single results of other studies
Molecule = PhoQ, residues 284 288 289 292 302 303 SASVAL; target = PhoP, residues 12 14 15 18 19 LHHSG (Escherichia coli, UniProt P23836); test = Sort-seq, measured: YFP reporter; system = E. coli; setting = PhoQ-PhoP variant library, with: 10 µM Mg2+; how to read = relative to: high Mg2+ state, higher = stronger signaling; measurement = fold induction; result = 16.9

Repeated from above (set 1):
Variant = S9A; result = 37.7%
